Measurements gathered from unrelated publications.
Numbered parts are unrelated; each lists some results of a single study. Changes are numbered by the printed parent chain.

Block 1
Target: Sal-like protein 4, full length isoform A (SALL4, Homo sapiens, UniProt Q9UJQ4, residues 1-1053)
UniProt Q9UJQ4, sequence (whole entry, looked up): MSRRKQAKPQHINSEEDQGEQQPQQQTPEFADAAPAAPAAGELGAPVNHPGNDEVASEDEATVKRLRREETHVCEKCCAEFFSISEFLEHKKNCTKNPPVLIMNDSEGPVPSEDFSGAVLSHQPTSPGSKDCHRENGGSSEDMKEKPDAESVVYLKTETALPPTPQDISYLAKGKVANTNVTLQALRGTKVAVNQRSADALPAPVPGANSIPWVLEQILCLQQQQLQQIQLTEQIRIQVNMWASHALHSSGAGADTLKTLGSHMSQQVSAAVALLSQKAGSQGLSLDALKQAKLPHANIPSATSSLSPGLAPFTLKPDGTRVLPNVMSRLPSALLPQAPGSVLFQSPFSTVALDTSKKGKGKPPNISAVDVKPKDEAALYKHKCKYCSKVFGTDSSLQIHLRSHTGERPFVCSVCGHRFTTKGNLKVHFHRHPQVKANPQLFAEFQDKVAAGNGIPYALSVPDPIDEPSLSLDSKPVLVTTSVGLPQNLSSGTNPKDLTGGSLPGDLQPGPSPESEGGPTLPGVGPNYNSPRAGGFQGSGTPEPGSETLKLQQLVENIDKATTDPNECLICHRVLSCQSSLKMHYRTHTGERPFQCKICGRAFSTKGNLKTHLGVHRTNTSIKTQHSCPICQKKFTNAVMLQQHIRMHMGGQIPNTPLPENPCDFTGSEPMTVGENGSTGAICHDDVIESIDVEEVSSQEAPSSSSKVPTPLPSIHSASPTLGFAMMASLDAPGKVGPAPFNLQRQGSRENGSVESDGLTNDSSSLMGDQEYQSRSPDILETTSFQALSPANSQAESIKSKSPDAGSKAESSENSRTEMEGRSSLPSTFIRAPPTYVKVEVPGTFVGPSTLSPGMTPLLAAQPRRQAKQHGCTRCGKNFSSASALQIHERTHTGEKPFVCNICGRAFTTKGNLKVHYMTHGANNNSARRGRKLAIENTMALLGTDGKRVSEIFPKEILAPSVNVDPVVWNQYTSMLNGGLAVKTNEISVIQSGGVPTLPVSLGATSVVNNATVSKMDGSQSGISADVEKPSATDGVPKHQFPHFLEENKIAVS
Technique: universal PBM
Form: double-stranded DNA, one strand shown
Medium: in vitro
Tested at: 600 nM
Setting: 8-mer, flanks averaged, mean of replicates
Direction: higher = stronger binding
Measurement: E-score
Oligonucleotide = CATGTCTC; value = 0.116
Oligonucleotide = AAACGACA; value = 0.0705
Oligonucleotide = GGTTGTGA; value = 0.0124
Oligonucleotide = AGACTGGC; value = -0.235
Oligonucleotide = CTGCACTA; value = 0.0184
Oligonucleotide = ACCGACGG; value = -0.297
Oligonucleotide = CAACCGAC; value = 0.0262
Oligonucleotide = ATGTCGAC; value = 0.048
Oligonucleotide = CTCCTGAC; value = -0.158
Oligonucleotide = ACGTTGGG; value = -0.21
Oligonucleotide = CGAATCAC; value = 0.00323
Oligonucleotide = AACATGAA; value = 0.203
Oligonucleotide = GCACCCGA; value = -0.326
Oligonucleotide = ACCTTGCG; value = -0.0816
Oligonucleotide = ACAGGCCA; value = -0.24
Oligonucleotide = CACAAAGA; value = 0.0864
Oligonucleotide = ATACAAAT; value = 0.349
Oligonucleotide = ACGGTAGA; value = -0.0745
Oligonucleotide = CGAGTTCA; value = -0.136
Oligonucleotide = AAATTCTC; value = 0.0423
Oligonucleotide = CAGTAACA; value = 0.169
Oligonucleotide = AGTTATGC; value = 0.298
Oligonucleotide = GCGCGTAA; value = -0.0711
Oligonucleotide = CAACAGAG; value = -0.0216
Oligonucleotide = ACACATTG; value = 0.139

Block 2
Target: TEF, bZIP domain (human)
Technique: DHFR protein complementation
Medium: yeast
Setting: single substitutions, most at no-binding floor
Reference: wild-type JUN-FOS pair
Direction: higher = stronger binding
Measurement: binding fitness
Starting sequence: JUN, bZIP domain (human); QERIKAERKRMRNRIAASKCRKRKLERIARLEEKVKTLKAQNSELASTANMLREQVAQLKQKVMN; partner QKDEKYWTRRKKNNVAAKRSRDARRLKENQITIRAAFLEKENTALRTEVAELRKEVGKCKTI
Change = V56A; value = -1.48 natural log
Change = E33L; value = -1.38 natural log
Change = A40Y; value = -1.45 natural log
Change = S43I; value = -1.28 natural log
Change = S43Q; value = -1.19 natural log
Change = S43W; value = -1.5 natural log
Change = E32V; value = -1.4 natural log
Change = A29D; value = -1.53 natural log
Change = R30M; value = -1.49 natural log
Change = K34P; value = -1.48 natural log
Change = A40C; value = -1.26 natural log
Change = T48R; value = -1.39 natural log
Change = L59W; value = -1.51 natural log
Change = E44R; value = -1.29 natural log
Change = E54I; value = -1.33 natural log
Change = S43D; value = -1.43 natural log
Change = A49H; value = -1.62 natural log
Change = K36L; value = -1.44 natural log

Block 3
Target: RING finger protein unkempt homolog, zinc fingers 1-6, GST-SBP tag (UNK, Homo sapiens, UniProt Q9C0B0, residues 30-357)
UniProt Q9C0B0, sequence (30-357, looked up): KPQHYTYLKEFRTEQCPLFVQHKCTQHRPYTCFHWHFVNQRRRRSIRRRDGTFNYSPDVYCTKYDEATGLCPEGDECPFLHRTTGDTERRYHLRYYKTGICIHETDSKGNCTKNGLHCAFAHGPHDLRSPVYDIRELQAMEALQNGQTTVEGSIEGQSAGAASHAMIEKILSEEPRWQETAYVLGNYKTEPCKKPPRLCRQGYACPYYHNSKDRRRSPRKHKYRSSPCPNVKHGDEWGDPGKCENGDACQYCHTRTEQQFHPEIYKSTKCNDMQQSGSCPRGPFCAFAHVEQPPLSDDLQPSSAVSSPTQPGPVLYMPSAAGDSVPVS
Technique: RNA Bind-n-Seq
Form: RNA
Medium: in vitro
Tested at: not given
Setting: RNA with constant flanks, human and mouse sites, ends assumed
Reference: input RNA pool
Direction: higher = stronger binding
Measurement: bound/input enrichment
Oligonucleotide = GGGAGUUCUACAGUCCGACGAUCGAGGAGGACAAAGAGCCCCUCAUCGAGCUCUUCGUCAAGGCUGGCAGUGAUGGUGAAAGCAUAGGAAACUGCCCCUUUUCCCAGAGGCUCUUCAUGAUUCUUUGGCUCAAAGGAGUUGUACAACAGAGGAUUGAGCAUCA; value = 0.119 ratio
Oligonucleotide = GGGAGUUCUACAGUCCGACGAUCAAUGAAUCUGAAGUUGAACCAUCUGUAAAUGCUGAUCUUAAACAAAUGAAUGAAAAUUCUGUGACACACUGUUCUGAAAAUAAUAUGCCGUCUUCUGAUCUUGCGGAUGAAAAGGUUGAACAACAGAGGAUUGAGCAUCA; value = 0.224 ratio
Oligonucleotide = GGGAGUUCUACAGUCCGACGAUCUUGUGCAGACGGCGAAGCAGCUCCAUCUCAGAAUACAGAAAGCUACGGAGUCCCUGAAGAGCUUUAGACCUGCAGCCCAGGCUUCUUUUGAAGACUAUGUUGUUAACAUAUCGAAACAAACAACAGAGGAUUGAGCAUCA; value = 0.218 ratio
Oligonucleotide = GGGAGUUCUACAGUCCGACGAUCGGAUUCUAUGAGUUUCUAAAUUGGUUUGAUGAAAGAGCAUGGUACCCACUGGGAAGAAUAGUGGGUGGCACCGUUUACCCAGGGUUGAUGAUAACAGCUGGCCUUAUUCAUUGGAUUUUACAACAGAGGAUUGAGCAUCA; value = 0.221 ratio
Oligonucleotide = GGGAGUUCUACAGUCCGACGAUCUCUGCCUGUAAGCAAGUCGUAAGUGUGGAAACUACAAGAGACAUUGAAUGGGCUACCUAUACCUGCACUUUGGGAUUCCAUGUUUUUGGAGUGUGGCCAGAAGGCUCGGACGGAACCGACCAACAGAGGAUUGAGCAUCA; value = 0.229 ratio
Oligonucleotide = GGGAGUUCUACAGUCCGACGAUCUCUCCAGAAUCAGAUACUGAACGAGAAAAGGAUAAAAAAGAAAAAGAUCGGGACAGUGAAAAAGACAGAAGUAGACAGAGAUCAGAAUCAAAACACAAAUCACCUAAGAAAAAGACUGGACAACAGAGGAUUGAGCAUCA; value = 0.562 ratio
Oligonucleotide = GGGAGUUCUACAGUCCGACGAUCAUAGUUUUACGAGAUAGCCUUCAUCAACCACAGUAUGUAGAGAAACUAGAAAAGAUUCUUCGCUUUGUCAUAAAAGAAAAAGCUCUGACCUUGCAAGAUCUUGAUAAUAUCUGGGCAGCACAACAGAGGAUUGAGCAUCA; value = 2.91 ratio
Oligonucleotide = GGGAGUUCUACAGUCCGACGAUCUAGGUCACAGUGACAGGUUUCUGAGUUGUUUCCCUUUUCAAGUCUCUGGGAGGCCAGUGGCAGCAGCAGGUCUGUGUUUCACCUUCUUCCCAUGUGAGCUUGGAAAACUUUGGCAUCUUACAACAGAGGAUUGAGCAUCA; value = 0.323 ratio
Oligonucleotide = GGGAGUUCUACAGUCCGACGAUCCAUAUAAAGCAAAAUGGAAAAUUAGAAGAUAACCCUUGCUCUGGUAGUCCUCCGAGGACUACAUUGUUGGGGACCAUAUUUUCGCCUGUCUUCAACUUUUUUUCACCAGCAAAUAAAAAUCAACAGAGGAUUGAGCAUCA; value = 0.209 ratio
Oligonucleotide = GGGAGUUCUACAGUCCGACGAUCGUCAUAGUUUUUUUUAUGACUACUUCUAGUGUAUAUUCUAAUUUCUUUUCUAGGCCUGAAUGUAUCUUUAUUUUCAUGUUAUAGGACAAUAUUAAGGCAUUUUAAAGGUCAUCAUCCUUUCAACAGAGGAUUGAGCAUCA; value = 44.2 ratio
Oligonucleotide = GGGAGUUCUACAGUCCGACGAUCCCUGAUACUUUGGAUCCAGCACUGAUGAGGCCAGGGAGAUUGGAUAGAAAAAUUGAAUUUAGCUUGCCCGAUCUAGAGGGUCGGACCCACAUAUUUAAGAUUCACGCUCGUUCAAUGAGUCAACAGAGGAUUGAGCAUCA; value = 2.11 ratio

Block 4
Target: CCND3, cyclin fold, Cln2 fusion (human)
Technique: yeast growth competition, sequencing
Medium: yeast
Setting: strong parent motif
Reference: not given
Direction: higher = stronger binding
Measurement: normalised enrichment score
Starting sequence: INSM1 docking peptide (human); PKAIRKLHFEDEV
Change = PMAIRKLHFEDEV [K2M]; value = 0.761
Change = PKAIRKLHFWDEV [E10W]; value = 0.458
Change = PKAIRKLHIEDEV [F9I]; value = 0.0175
Change = PAAIRKLHFEDEV [K2A]; value = 0.669
Change = PKAIRKLHFEDLV [E12L]; value = 0.795
Change = PKAIRKLPFEDEV [H8P]; value = 0.377
Change = PKAIRKLHCEDEV [F9C]; value = 0.121
Change = PKAIRKLAFEDEV [H8A]; value = 0.514
Change = PKAIRKLHFECEV [D11C]; value = 0.431
Change = PKAIRKLHFEDQV [E12Q]; value = 0.555
Change = PKAIRKLHFEDWV [E12W]; value = 0.51
Change = PKAIRSLHFEDEV [K6S]; value = 0.59
Change = PKAIRKLHFEFEV [D11F]; value = 0.548
Change = PTAIRKLHFEDEV [K2T]; value = 1.73
Change = PKAIRKLHFEDNV [E12N]; value = 0.92
Change = PKAIRPLHFEDEV [K6P]; value = -0.248
Change = PKAIRKLHFEYEV [D11Y]; value = 0.208
Change = PKAIRKSHFEDEV [L7S]; value = 0.342
Change = PKNIRKLHFEDEV [A3N]; value = 0.124
Change = PKAIRKLHFEQEV [D11Q]; value = 0.446
Change = PKAIRKLTFEDEV [H8T]; value = 1.67

A few entries again (block 4):
Change = PKAIRKLAFEDEV [H8A]; value = 0.514
Change = PKAIRKLHFECEV [D11C]; value = 0.431
Change = PKAIRKLHFEDQV [E12Q]; value = 0.555
Change = PKAIRKLHFEDWV [E12W]; value = 0.51
Change = PKAIRSLHFEDEV [K6S]; value = 0.59
Change = PKAIRKLHFEFEV [D11F]; value = 0.548
Change = PTAIRKLHFEDEV [K2T]; value = 1.73
Change = PKAIRKLHFEDNV [E12N]; value = 0.92
Change = PKAIRPLHFEDEV [K6P]; value = -0.248
